Experimental data collected from several papers.
Each numbered part is a random draw from the data of one study; scales do not carry over between parts. Positions count from the first letter of the parent shown.

Block 1
Target: RING finger protein unkempt homolog, zinc fingers 1-6, GST-SBP tag (UNK, Homo sapiens, UniProt Q9C0B0, residues 30-357)
Technique: RNA Bind-n-Seq
Form: RNA
Matrix: in vitro
Tested at: not given
Setting: RNA with constant flanks, human and mouse sites, ends assumed
Baseline: input RNA pool
Reading: higher = stronger binding
Shared flanks, not repeated: GGGAGUUCUACAGUCCGACGAUC … CAACAGAGGAUUGAGCAUCA
Construct (chain): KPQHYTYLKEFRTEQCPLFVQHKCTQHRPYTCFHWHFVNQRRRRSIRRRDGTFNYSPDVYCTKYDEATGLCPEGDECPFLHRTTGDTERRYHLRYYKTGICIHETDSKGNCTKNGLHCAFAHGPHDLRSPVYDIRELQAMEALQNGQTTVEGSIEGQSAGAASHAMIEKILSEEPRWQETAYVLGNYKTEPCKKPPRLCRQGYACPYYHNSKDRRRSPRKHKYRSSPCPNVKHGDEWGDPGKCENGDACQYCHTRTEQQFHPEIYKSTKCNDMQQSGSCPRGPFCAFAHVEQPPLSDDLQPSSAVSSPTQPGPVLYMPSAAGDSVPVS
| Sequence | bound/input enrichment [ratio] |
| --- | --- |
| UCACUUGCUCAGCGUUUGGAAAAACACGAACUCAUUGAAUUCAGAAGAAUUGCUGCUUAUCUCUUCAAAGGCAACAAUCGCUGGAAACAGAGUGUAGAGUUGUGCAAGAAAGACAGCCUU | 0.0995 |
| UUCGAACAGAAAAUGACAGAAACAGCUCAGAAAUUUCAAGAUAUUGAAGAAACUCAUCUCAUUCACAUAAAGGAAAUUAUAGGAUCCUUGUCAAAUGCUAUAAAGGAAAUUCAUUUGCAG | 0.232 |
| UCUGCUUGUUCCGGCCACUGCUUGUGUGAGCUUUAUUUUGUGUGUGUGUAUGUGCCUUGGAAUAGAAAACACCCCUUUGCAUUCAAUUUCUCUCAUCCCUAAAAGCUUUUAAAGACAUGC | 0.264 |
| AGAAUGGAAUCCUGACAAUGAUACAGGACACACAAUGGGUGAUCCAUUCAUGUUGCAGCAGUCUACAAAUCCAGCACCAGGAAUUCUGGGACCUCCACCUCCCUCAUUUCAUCUUGGGGG | 0.148 |
| UAUACUAACAAGGUCAUUACUUUGUGGUAUCGUCCACCUGAAUUGCUCUUGGGAGAAGAACGAUAUACACCAGCCAUUGAUGUAUGGAGCUGUGGAUGUAUCCUUGGUGAACUCUUCACU | 0.118 |
| GUUAUUGAAAAACUGUUAACCUCUUACGGAUUUAUUCAGUGUUCAGAACGUCAAGCUAGACUUUUCUUCCACUGUUCACAGUAUAAUGGCAACCUGCAAGACUUAAAAGUAGGAGAUGAU | 0.386 |
| AGGCGGCCGUCAUGGCGGUGUCGGAGAGCCAGCUCAAGAAAAUGGUGUCCAAGUACAAAUACAGAGACCUAACUGUACGUGAAACUGUCAAUGUUAUUACUCUAUACAAAGAUCUCAAAC | 0.0651 |
| CACCAUAAAAAGUAACUCAUAACUCAUAAAUAAAGCAUAACUCAGUAAAGUGAGAAGGAUGAAUACCUAACAUGAAGGAGAUCCUUGGUGACAGGUAGGCAUGGGGACAAGAGCCACUCU | 0.233 |
| GCAGCUAUUGCACUAGUCAUUUUCUUCUUGAUUGGAUUCAUGAGUGGCUACCUGGGCUAUUGUAAGCGUGUAGAACAAAAAGAGGAGUGUGUGAAACUGGCUGAAACGGAGGAGACAGAC | 0.463 |
| AAGGCGUUCCCGGAGCACCUGUACCAGCGCGUCAAAAUCAGGAAUAAGGUUUUUGGAUUGCAAGGGGUUUCCAGGGGCAUGUAUGACGGUCCUGUGUACGAGGUACCAGCUACACCCAAA | 0.127 |
| CGGAUCUUUGGUGAAGUGGCCAGGUCUACUGACUCAAAGUCCAUGAAAGUGGUGAGCCUGUUUAGCGAGCAGCCCUUGGCCAAGAAGAAAGAGACUUAUGACUGGUAUCCAAAUCACAAC | 0.0757 |

Block 2
Target: ABI1, truncated, D143A, DHFR fusion (Arabidopsis thaliana)
Technique: DHFR PCA, deep sequencing
Matrix: yeast
Setting: methotrexate growth selection, single substitutions
With: (+)-ABA 58 µM
Baseline: wild-type fitted maximum
Reading: higher = stronger binding
Starting sequence: PYL1, truncated, DHFR fusion (Arabidopsis thaliana); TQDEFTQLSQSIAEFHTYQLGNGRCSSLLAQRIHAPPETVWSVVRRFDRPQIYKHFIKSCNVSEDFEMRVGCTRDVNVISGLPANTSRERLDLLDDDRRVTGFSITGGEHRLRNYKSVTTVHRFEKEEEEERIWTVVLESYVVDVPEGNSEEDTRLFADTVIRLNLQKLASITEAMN; partner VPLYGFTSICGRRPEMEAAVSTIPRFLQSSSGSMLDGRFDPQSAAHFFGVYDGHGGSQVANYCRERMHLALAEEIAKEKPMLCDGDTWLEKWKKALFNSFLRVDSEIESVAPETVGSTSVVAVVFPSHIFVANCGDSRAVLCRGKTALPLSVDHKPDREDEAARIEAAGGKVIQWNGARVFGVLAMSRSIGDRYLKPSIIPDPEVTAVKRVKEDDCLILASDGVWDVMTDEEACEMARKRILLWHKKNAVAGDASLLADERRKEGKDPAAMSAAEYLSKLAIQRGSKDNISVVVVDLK
| Variant | relative binding score [%] |
| --- | --- |
| V143L | 46.6 |
| Q7A | 94.9 |
| A158S | 60.1 |
| T6G | 92.5 |
| D95F | 15.1 |
| L112E | -5.91 |
| F5E | 83.2 |
| I79A | 85.9 |
| R99C | 76.3 |
| E128A | 97.9 |
| D75V | 91.3 |
| I57E | -12.3 |
| V121L | 75.9 |
| D65L | 67.7 |

Block 3
Target: CCND2, cyclin fold, Cln2 fusion (human)
Technique: yeast growth competition, sequencing
Matrix: yeast
Setting: weak parent motif
Baseline: not given
Reading: higher = stronger binding
Starting sequence: GMNC docking peptide (human); KNAKRNLSSEFAN; partner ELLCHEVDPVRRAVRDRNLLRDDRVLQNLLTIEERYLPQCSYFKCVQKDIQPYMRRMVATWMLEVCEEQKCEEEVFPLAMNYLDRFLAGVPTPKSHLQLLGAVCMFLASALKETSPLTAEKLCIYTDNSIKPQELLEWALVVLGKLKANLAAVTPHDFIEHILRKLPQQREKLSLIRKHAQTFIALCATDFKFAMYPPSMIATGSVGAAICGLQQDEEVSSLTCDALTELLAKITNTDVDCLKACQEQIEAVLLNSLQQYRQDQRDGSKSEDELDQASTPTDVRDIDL
| Variant | normalised enrichment score |
| --- | --- |
| KIAKRNLSSEFAN [N2I] | 0.602 |
| KFAKRNLSSEFAN [N2F] | 0.387 |
| KNAKRNLSSHFAN [E10H] | -0.131 |
| KNAKRNLCSEFAN [S8C] | -0.268 |
| KNAKRNLSSEEAN [F11E] | -0.0554 |
| KNAKWNLSSEFAN [R5W] | 0.307 |
| KNAKRNLSSETAN [F11T] | 0.36 |
| KNAKRNLNSEFAN [S8N] | 0.311 |
| KNWKRNLSSEFAN [A3W] | 0.381 |
| KNAKSNLSSEFAN [R5S] | -0.0589 |
| KNAKRNLSAEFAN [S9A] | 0.725 |
| KNAARNLSSEFAN [K4A] | 0.18 |
| KNAKRNLSSCFAN [E10C] | -0.13 |
| KNHKRNLSSEFAN [A3H] | 0.53 |
| KNAKNNLSSEFAN [R5N] | 0.161 |
| KNAKRNLSSWFAN [E10W] | 0.22 |
| KNAKRNLSSIFAN [E10I] | -0.307 |
| KNAKANLSSEFAN [R5A] | 0.159 |
| KNAKRNLSSEFRN [A12R] | 0.197 |

Block 4
Target: Ras GTPase-activating protein-binding protein 1, full length (G3BP1, Homo sapiens, UniProt Q13283)
Chain of UniProt Q13283 (whole entry, looked up): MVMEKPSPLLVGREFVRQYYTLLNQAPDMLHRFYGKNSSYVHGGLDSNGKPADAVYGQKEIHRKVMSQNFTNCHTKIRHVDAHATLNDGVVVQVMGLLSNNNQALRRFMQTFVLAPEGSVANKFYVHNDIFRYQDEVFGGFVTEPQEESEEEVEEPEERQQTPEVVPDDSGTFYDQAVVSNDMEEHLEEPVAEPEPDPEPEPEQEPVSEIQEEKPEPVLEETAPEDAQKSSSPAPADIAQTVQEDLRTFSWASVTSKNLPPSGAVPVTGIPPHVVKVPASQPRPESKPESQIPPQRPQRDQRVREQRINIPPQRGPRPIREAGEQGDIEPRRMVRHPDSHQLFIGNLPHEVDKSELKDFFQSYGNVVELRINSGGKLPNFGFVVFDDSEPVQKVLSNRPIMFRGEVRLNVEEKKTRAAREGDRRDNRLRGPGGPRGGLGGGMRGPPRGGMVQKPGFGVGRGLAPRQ
Technique: RNA Bind-n-Seq
Form: RNA
Matrix: in vitro
Tested at: 200 nM
Setting: whole 134-nt RNA, ends assumed
With: 150 mM LiCl
Baseline: input library
Reading: higher = stronger binding
Library: 7-deaza-guanosine replaces G
Shared flanks, not repeated: GGGAGUUCUACAGUCCGACGAUC … UGGAAUUCUCGGGUGUCAAGG
| Sequence | log2 enrichment |
| --- | --- |
| AAGUCCUGUGCUACACAUCGUAUGUACCGAAUCGGGGAGGGGUGGGGAAAAAGGGGAAAGUAUUAUGUUACGCCGUUCGGAUCUGCACUU | 0.236 |
| AGUCCUGUGCUACACAUCGUAUGUACCGAAUCGGGAAAGGGAAAAAGGGAAAAAGGGAAAGUAUUAUGUUACGCCGUUCGGAUCUGCACU | -0.453 |
| GCAGGAAGUAAAAACAAAUGGAAAUGCUACGGAUAGUGGCAGGGGUGGGGGUUGCUAAGGAAAGGGUGGGAUGGGAGUGGGUAAAGAGUU | 0.227 |
| UGGGAGGUGGAUUUUCUUUAUUUUUUUAGCUCAUUUCCAGGGGUGGGAAUUUUUUUUUAAUAUGUGUCAUGAAUAAAGUUGUUUUUGAAA | -0.0293 |
| UGGCCCUGGUGGCAUGCGGGGAGGAAGAGGUGGCCUCAUGGAUCGUUGUGGUCCCGGUGGAAUGUUCAGAGGUGGCCGUGGUGGAGACAG | 0.423 |
| CAAGUCCUGUGCUACACAUCGUAUGUACCGAAUCGGGUUUUUGGGUGGGUUUGGGAAAGUAUUAUGUUACGCCGUUCGGAUCUGCACUUC | -0.526 |
| UCAGCAACCACCUCAACUCAUUGACUCCGCCAACAUCCGUCAGGAGGAUGCCUUUGAUAACAACAGUGACAUUGCUGAAGAUGGUGGCCA | -0.124 |
| UCCUCAAGUCCUGUGCUACACAUCGUAUGUACCGAAUCGGGUGGGGUGGUGGAAAGUAUUAUGUUACGCCGUUCGGAUCUGCACUUCCAG | -0.446 |
| UCCACCCCUUCUUCCUCCCUUUAACUUAUCCAUUCACUUAAAACAUUACCUGGUCAUCUGGUAAGCCCGGGACAGUAAGCCGAGUGGCUG | -0.116 |
| GUCCUGUGCUACACAUCGUAUGUACCGAAUCGGGGAAAAAGGGAAAAAGGGAAAAAGGGAAAGUAUUAUGUUACGCCGUUCGGAUCUGCA | -0.163 |
| CAAGUCCUGUGCUACACAUCGUAUGUACCGAAUCGGAAAAAAAGGUUUGGUUUGGAAAGUAUUAUGUUACGCCGUUCGGAUCUGCACUUC | -2 |

Block 5
Target: Histone acetyltransferase KAT6A, both winged helices, GST fusion (KAT6A, Homo sapiens, UniProt Q92794, residues 1-181)
Technique: protein binding microarray
Form: double-stranded DNA, one strand shown
Matrix: in vitro
Tested at: not given
Setting: 8-mer, flanks averaged, mean of 2 arrays, mostly near background
Baseline: not given
Reading: higher = stronger binding
Construct (chain): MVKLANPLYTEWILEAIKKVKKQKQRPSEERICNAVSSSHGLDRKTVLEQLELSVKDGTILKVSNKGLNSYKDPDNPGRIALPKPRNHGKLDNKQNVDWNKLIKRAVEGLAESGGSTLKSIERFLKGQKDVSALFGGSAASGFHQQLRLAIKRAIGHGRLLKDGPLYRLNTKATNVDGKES
| Sequence | E-score |
| --- | --- |
| AGAGTCCG | 0.0807 |
| CTCACGAA | -0.096 |
| AACGTTAG | 0.0835 |
| TTGAGAAA | -0.202 |
| ACTGGTGG | -0.209 |
| TAAATCAA | -0.0138 |
| CGGATTTC | 0.171 |
| GCGGCTTA | 0.284 |
| ACACAATG | -0.188 |
| ACAACACC | -0.0279 |
| GTCGAAAA | 0.00557 |
| CCAATCAA | -0.0333 |
| AAGATAAC | -0.0732 |
| CGGAGGCC | 0.13 |
| AGAATGGC | -0.166 |
| CTCGGCAC | 0.163 |
| CACTGGCA | -0.185 |
| CCGTTCTC | 0.12 |
| CACCGCAA | 0.126 |
| AACGTTGA | 0.00724 |
| GCACGCAA | 0.108 |
| CACTGTAA | -0.0941 |

For quick reference, copied from above (block 4):
| Sequence | log2 enrichment |
| --- | --- |
| AGUCCUGUGCUACACAUCGUAUGUACCGAAUCGGGAAAGGGAAAAAGGGAAAAAGGGAAAGUAUUAUGUUACGCCGUUCGGAUCUGCACU | -0.453 |
| GCAGGAAGUAAAAACAAAUGGAAAUGCUACGGAUAGUGGCAGGGGUGGGGGUUGCUAAGGAAAGGGUGGGAUGGGAGUGGGUAAAGAGUU | 0.227 |
| UGGGAGGUGGAUUUUCUUUAUUUUUUUAGCUCAUUUCCAGGGGUGGGAAUUUUUUUUUAAUAUGUGUCAUGAAUAAAGUUGUUUUUGAAA | -0.0293 |
| UGGCCCUGGUGGCAUGCGGGGAGGAAGAGGUGGCCUCAUGGAUCGUUGUGGUCCCGGUGGAAUGUUCAGAGGUGGCCGUGGUGGAGACAG | 0.423 |
| CAAGUCCUGUGCUACACAUCGUAUGUACCGAAUCGGGUUUUUGGGUGGGUUUGGGAAAGUAUUAUGUUACGCCGUUCGGAUCUGCACUUC | -0.526 |
| UCAGCAACCACCUCAACUCAUUGACUCCGCCAACAUCCGUCAGGAGGAUGCCUUUGAUAACAACAGUGACAUUGCUGAAGAUGGUGGCCA | -0.124 |
| UCCUCAAGUCCUGUGCUACACAUCGUAUGUACCGAAUCGGGUGGGGUGGUGGAAAGUAUUAUGUUACGCCGUUCGGAUCUGCACUUCCAG | -0.446 |
| UCCACCCCUUCUUCCUCCCUUUAACUUAUCCAUUCACUUAAAACAUUACCUGGUCAUCUGGUAAGCCCGGGACAGUAAGCCGAGUGGCUG | -0.116 |
| GUCCUGUGCUACACAUCGUAUGUACCGAAUCGGGGAAAAAGGGAAAAAGGGAAAAAGGGAAAGUAUUAUGUUACGCCGUUCGGAUCUGCA | -0.163 |
